Results of several laboratories.
Parts stem from different laboratories: compare values within a part only. Positions count from the first letter of the parent shown.
Chain of UniProt P54753 (whole entry, looked up): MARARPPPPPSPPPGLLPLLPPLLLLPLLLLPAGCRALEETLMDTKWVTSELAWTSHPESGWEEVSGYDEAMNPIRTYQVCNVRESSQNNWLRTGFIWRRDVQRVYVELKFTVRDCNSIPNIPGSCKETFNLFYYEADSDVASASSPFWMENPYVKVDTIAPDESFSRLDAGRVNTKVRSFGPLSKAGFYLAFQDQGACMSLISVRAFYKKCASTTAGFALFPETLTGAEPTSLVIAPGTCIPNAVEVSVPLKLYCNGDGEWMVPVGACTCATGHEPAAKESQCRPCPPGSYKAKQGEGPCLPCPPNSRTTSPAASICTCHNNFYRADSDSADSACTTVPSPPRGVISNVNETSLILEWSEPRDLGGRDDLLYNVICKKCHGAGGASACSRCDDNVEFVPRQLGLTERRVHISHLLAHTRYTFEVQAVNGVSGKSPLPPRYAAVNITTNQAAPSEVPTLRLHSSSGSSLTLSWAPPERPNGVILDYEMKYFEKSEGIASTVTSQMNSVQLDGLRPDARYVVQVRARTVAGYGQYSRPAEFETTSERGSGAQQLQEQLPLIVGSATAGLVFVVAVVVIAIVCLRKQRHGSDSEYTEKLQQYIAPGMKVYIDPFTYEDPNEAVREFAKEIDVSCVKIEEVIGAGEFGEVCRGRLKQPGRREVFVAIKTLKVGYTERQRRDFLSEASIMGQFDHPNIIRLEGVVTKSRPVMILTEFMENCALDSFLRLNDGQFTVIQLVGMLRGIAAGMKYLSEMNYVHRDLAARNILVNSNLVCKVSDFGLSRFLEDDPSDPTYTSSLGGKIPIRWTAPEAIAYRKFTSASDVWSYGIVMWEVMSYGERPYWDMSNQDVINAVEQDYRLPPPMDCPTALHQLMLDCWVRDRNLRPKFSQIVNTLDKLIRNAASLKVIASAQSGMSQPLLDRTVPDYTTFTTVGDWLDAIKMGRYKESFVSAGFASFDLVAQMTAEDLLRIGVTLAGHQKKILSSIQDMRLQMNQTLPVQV

Set 1
Target: POU, POU domain (Salpingoeca helianthica)
Technique: Spec-seq
Molecule type: double-stranded DNA, one strand shown
Sample: in vitro
Tested at: not given
Setting: whole probe, mean of replicates
Relative to: not given
Reading: lower = stronger binding
Shared flanks, not repeated: GAGTCGTCTCGTCAGCAC … CCGTAGAGCACTCAGGTC
Residues (chain): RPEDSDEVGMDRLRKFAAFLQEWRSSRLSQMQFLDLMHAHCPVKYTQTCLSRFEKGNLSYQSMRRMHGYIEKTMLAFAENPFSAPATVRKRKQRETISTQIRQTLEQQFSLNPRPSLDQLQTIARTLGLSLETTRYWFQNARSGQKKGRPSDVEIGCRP
Strand	relative binding energy
ATGCTACG	1.28 ln ratio
ATGCTACT	1.22 ln ratio
ATACCTAT	0.984 ln ratio
ATGCTTCC	0.902 ln ratio
ATTACTAT	0.455 ln ratio
CGTGTAAT	0.449 ln ratio
ATTCCGAT	1.19 ln ratio
GACCTAAT	0.781 ln ratio

Set 2
Target: Prothrombin, mature alpha-thrombin (F2, Homo sapiens, UniProt P00734)
Technique: aptamer microarray, sandwich
Molecule type: DNA with 2'F-ANA
Sample: in vitro
Tested at: 200 nM
Setting: whole 15-mer aptamer, many near background
Together with: Cy3 exosite-II aptamer, 400 nM
Reading: higher = stronger binding
Strand: GGTTGGTGTGGTTGG
Modification	mean fluorescence intensity [a.u.]
2'F-ANA at 2 3 6 8 10 14 15	246
2'F-ANA at 1 4 6 7 8 9 10 11	81.5
2'F-ANA at 2 3 4 5 10 11 12 13 15	74.4
2'F-ANA at 1 2 3 4 5 6 10 13 14	46.3
2'F-ANA at 1 2 5 8 9 10 12 15	52.1
2'F-ANA at 3 4 5 6 7 11 14 15	51.4
2'F-ANA at 1 3 9 10 11 12 14 15	65.7
2'F-ANA at 1 2 5 6 7 8 9 10 11 12 15	66.3

Set 3
Target: CCND1, cyclin fold, Cln2 fusion (human)
Technique: yeast growth competition, sequencing
Sample: yeast
Setting: weak parent motif
Relative to: not given
Reading: higher = stronger binding
Starting sequence: GMNC docking peptide (human); KNAKRNLSSEFAN; partner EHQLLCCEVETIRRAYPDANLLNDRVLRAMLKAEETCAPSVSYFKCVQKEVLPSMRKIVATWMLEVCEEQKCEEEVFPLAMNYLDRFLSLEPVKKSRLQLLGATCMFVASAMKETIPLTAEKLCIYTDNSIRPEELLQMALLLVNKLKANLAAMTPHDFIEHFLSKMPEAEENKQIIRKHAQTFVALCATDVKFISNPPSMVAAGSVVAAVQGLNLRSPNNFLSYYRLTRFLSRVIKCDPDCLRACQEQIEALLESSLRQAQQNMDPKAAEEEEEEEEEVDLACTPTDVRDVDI
Change	normalised enrichment score
A12C	0.596
N2V	0.0243
S9Y	0.729
F11K	0.0749
A3G	0.345
A3T	0.705
K4M	0.57
L7P	0.182

Mixed results
Compound	target	read-out	action	tested at	relative to	endpoint	result
O=C(Nc1cccc(Nc2cc(Nc3cccc(C(F)(F)F)c3)ncn2)c1)C1CC1	Ephrin type-B receptor 3 (EPHB3, Homo sapiens, UniProt P54753)	enzyme activity	inhibitor	0.5 µM	control	remaining activity	87.9%
